Results of several laboratories.
Numbered parts are unrelated; each lists some results of a single study. Several values in a cell are separate wells, animals, samples, runs or records.
Sequence of UniProt Q09013 (whole entry, looked up): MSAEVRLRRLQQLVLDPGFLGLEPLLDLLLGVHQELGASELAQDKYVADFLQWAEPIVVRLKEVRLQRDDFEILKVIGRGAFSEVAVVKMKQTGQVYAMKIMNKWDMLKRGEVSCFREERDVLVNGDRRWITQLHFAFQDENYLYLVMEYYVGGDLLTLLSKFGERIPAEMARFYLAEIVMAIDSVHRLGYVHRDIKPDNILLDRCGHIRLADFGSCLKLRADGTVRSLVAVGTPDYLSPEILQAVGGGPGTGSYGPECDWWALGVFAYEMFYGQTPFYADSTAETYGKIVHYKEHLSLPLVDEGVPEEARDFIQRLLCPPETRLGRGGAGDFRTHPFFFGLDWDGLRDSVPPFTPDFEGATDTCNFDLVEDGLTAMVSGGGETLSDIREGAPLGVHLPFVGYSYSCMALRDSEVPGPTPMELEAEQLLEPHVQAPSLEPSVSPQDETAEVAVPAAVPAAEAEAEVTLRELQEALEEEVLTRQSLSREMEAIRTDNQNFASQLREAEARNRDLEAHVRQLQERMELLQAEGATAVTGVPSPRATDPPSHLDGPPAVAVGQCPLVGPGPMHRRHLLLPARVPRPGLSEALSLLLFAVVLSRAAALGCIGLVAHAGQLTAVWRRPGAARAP
Sequence of UniProt Q9Y6R4 (whole entry, looked up): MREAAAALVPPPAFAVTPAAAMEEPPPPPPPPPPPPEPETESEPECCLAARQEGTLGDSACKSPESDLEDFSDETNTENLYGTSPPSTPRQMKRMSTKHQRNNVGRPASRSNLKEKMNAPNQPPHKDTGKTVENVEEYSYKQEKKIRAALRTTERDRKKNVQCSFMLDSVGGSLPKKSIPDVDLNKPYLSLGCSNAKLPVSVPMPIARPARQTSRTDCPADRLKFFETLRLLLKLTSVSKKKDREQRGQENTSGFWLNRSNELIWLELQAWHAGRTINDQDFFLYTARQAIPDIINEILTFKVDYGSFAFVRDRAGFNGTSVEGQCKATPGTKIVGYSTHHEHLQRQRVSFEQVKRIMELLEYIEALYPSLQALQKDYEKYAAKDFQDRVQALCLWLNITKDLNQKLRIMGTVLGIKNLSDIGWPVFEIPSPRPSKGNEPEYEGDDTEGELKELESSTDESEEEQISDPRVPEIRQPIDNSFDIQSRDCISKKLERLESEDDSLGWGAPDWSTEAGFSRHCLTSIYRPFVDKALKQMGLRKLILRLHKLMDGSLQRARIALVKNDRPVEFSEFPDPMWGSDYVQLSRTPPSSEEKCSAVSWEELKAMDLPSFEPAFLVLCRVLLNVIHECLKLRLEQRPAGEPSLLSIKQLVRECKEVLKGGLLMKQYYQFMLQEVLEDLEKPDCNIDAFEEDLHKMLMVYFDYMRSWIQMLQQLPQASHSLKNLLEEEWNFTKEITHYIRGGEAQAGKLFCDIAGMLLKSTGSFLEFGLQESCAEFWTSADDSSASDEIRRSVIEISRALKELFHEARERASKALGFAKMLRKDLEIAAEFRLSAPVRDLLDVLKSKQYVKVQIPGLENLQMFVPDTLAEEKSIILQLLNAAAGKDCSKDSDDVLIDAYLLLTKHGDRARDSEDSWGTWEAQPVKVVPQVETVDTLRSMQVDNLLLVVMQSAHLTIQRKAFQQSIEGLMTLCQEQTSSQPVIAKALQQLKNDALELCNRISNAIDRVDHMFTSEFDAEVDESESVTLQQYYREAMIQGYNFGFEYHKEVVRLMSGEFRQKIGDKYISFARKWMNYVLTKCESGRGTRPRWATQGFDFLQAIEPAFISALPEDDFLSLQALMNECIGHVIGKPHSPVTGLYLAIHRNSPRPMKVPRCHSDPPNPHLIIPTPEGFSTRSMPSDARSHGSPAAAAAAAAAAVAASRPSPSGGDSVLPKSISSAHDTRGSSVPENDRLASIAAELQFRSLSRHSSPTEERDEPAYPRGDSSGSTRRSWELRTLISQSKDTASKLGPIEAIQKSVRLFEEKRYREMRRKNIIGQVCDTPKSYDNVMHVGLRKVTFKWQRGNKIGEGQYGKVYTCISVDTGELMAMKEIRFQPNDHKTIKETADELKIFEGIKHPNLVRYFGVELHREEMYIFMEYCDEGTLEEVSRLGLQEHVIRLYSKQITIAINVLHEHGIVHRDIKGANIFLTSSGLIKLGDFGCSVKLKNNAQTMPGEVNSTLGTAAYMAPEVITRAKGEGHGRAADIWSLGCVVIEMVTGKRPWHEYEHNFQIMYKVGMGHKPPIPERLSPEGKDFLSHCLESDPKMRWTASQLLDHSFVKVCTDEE
Sequence of UniProt Q9NSY1 (whole entry, looked up): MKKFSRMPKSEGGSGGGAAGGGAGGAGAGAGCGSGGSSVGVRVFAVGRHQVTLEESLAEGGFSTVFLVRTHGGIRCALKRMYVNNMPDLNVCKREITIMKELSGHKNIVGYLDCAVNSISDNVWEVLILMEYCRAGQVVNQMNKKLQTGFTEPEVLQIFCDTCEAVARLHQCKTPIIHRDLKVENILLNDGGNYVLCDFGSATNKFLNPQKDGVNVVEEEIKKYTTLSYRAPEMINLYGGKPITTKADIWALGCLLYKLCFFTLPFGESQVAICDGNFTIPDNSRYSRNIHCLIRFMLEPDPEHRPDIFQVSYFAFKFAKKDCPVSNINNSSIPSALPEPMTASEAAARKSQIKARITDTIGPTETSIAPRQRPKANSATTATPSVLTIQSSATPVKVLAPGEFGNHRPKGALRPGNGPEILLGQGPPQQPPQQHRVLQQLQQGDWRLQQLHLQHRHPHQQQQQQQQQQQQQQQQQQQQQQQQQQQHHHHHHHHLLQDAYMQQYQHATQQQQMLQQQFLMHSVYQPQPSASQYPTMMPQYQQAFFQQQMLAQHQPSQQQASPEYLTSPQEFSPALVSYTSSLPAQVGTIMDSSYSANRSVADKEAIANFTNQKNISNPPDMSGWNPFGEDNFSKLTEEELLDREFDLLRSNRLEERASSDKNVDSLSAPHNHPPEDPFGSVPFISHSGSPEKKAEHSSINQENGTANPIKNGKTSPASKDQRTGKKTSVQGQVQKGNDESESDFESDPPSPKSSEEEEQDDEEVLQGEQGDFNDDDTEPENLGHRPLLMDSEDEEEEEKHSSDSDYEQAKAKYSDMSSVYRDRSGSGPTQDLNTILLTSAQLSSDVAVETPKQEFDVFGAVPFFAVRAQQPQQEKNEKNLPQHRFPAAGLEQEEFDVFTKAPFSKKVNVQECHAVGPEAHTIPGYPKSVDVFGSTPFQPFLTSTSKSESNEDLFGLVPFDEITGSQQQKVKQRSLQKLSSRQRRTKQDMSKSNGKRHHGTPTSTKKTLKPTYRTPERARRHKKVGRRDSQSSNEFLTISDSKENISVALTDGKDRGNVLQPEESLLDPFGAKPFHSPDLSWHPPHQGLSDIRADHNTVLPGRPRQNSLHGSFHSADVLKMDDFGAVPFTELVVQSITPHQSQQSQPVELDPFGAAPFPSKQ
Sequence of UniProt O75460 (whole entry, looked up): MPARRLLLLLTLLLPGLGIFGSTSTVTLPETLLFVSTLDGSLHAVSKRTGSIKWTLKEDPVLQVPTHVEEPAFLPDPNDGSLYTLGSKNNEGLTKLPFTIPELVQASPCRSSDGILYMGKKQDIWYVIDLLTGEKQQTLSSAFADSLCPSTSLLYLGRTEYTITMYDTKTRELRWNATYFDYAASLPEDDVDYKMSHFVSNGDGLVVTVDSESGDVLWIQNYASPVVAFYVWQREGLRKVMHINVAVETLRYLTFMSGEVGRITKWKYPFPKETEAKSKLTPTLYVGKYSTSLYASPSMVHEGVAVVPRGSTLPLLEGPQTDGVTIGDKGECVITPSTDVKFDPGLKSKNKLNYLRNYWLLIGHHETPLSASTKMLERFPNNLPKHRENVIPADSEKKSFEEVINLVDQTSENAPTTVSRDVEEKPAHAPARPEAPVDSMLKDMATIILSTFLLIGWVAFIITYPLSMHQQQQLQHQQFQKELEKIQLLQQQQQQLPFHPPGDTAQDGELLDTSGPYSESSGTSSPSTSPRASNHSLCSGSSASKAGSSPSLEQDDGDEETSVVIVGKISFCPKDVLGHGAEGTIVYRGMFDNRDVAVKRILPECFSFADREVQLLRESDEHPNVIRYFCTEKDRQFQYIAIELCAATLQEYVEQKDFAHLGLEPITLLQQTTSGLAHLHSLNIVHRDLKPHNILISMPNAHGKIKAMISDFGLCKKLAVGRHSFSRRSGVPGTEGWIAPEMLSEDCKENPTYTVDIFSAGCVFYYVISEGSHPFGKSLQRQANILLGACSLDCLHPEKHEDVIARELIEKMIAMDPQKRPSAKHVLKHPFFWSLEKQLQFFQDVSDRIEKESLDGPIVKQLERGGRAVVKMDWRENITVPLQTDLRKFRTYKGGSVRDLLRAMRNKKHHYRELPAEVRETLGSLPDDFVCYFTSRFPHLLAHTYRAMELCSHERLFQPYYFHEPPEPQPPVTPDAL
Sequence of UniProt P48730 (whole entry, looked up): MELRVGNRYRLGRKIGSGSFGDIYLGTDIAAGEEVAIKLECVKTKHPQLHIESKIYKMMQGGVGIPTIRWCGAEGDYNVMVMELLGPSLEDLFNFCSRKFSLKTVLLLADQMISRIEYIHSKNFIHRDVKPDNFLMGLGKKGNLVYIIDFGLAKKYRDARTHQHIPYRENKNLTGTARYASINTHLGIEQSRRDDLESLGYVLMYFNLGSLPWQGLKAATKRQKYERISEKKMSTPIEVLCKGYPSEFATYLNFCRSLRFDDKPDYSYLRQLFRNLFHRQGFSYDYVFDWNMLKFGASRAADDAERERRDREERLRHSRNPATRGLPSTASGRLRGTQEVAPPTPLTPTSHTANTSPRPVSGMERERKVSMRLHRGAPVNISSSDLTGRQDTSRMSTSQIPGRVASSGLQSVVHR

Set 1
Species: human
Sample: microsomes or S9
Concentration: 2 µM
Time: 0.5 h
Measurement: remaining compound
SMILES = Cc1cccc(CNC(=O)c2c(OCC(C)C)cc(=O)n3c2CCCCC3)c1; value = 5.29%
SMILES = Cc1ccc(N(CC(O)CN2CCCCC2)S(=O)(=O)c2ccc3ccccc3c2)cc1 (stereo not drawn); value = 6.17%
SMILES = CSc1ccc(C2c3cccn3-c3sc4c(c3CN2C(=O)NCc2ccc(F)cc2)CCCC4)cc1 (stereo not drawn); value = 5.17%
SMILES = O=c1c2ncn(C3CCS(=O)(=O)C3)c2ncn1Cc1ccc(F)cc1 (stereo not drawn); value = 88.8%
SMILES = Cc1nn(CCOC(=O)c2ccoc2)c2ncc(Br)cc12; value = 3.75%

Set 2
Structure (SMILES): Cc1nc(Cc2cccc(C(F)(F)F)c2)sc1-c1ccc(C(N)=O)nc1
Read-out: cell-free assay
Technique: competition with immobilised ligand
Concentration: 1 µM
Measurement: remaining binding
target = Myotonin-protein kinase (DMPK, Homo sapiens, UniProt Q09013); value = 100%
target = Casein kinase I isoform delta (CSNK1D, Homo sapiens, UniProt P48730); value = 75%
target = Mitogen-activated protein kinase kinase kinase 4 (MAP3K4, Homo sapiens, UniProt Q9Y6R4); value = 72%
target = BMP-2-inducible protein kinase (BMP2K, Homo sapiens, UniProt Q9NSY1); value = 100%
target = Serine/threonine-protein kinase/endoribonuclease IRE1 (ERN1, Homo sapiens, UniProt O75460); value = 100%

Other studies, line by line
Compound = CCC[C@@H]1NC(=O)CSC[C@@H](C(=O)OCC)N(C)C(=O)[C@H](CC(C)C)NC(=O)[C@@H](C)N(C)C(=O)[C@H](CC(C)C)NC(=O)[C@H](C)N(C)C(=O)[C@@H]2CCCN2C(=O)[C@@H](CC(C)C)NC(=O)CN(CCC)C1=O; system = hydrocarbon/water; measurement = logD; value = 0.418
Compound = c1ccc2c(-c3nn4c(-c5ccncc5)nnc4s3)c[nH]c2c1; target or system = α-galactosidase (human, wild type); system = healthy dermal fibroblasts; setting = 0.5 µM, without ISRIB; how to read = relative to: DMSO; measurement = remaining activity; value = 161% and 143% and 138% and 125% and 117% and 109% and 115%

Excerpt of the above (set 2):
target = Mitogen-activated protein kinase kinase kinase 4 (MAP3K4, Homo sapiens, UniProt Q9Y6R4); value = 72%
